Measurements gathered from unrelated publications.
Parts stem from different laboratories: compare values within a part only. Values joined by “and” are separate records of one study, mostly repeats; a detail may differ.
Sequence of UniProt O15197 (whole entry, looked up): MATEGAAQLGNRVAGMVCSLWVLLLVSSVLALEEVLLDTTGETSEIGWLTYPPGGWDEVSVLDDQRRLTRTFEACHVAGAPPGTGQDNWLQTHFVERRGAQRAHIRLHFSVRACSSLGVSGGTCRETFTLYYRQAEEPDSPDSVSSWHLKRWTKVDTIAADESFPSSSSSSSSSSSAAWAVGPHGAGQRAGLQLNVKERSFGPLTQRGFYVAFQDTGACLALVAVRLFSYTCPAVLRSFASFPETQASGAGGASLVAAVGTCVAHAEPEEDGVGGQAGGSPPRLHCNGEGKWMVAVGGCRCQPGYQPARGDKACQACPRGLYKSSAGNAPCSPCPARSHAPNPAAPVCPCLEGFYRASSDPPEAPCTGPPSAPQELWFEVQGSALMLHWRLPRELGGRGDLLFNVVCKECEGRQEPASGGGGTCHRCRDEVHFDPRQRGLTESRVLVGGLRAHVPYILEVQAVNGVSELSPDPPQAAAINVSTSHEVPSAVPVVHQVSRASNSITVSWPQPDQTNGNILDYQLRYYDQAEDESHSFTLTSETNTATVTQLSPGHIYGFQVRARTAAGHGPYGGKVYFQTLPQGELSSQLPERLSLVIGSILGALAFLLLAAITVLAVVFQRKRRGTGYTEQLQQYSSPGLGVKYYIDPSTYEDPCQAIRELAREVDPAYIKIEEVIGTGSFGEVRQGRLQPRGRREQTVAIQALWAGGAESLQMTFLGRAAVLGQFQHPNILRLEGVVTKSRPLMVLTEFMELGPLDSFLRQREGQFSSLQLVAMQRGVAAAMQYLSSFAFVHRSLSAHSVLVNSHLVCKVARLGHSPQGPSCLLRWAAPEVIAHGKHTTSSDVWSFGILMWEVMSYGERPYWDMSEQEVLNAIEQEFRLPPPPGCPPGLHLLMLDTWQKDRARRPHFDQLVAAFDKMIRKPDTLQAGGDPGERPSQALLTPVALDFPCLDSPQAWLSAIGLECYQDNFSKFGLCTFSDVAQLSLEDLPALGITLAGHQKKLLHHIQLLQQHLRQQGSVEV
Sequence of UniProt P36894 (whole entry, looked up): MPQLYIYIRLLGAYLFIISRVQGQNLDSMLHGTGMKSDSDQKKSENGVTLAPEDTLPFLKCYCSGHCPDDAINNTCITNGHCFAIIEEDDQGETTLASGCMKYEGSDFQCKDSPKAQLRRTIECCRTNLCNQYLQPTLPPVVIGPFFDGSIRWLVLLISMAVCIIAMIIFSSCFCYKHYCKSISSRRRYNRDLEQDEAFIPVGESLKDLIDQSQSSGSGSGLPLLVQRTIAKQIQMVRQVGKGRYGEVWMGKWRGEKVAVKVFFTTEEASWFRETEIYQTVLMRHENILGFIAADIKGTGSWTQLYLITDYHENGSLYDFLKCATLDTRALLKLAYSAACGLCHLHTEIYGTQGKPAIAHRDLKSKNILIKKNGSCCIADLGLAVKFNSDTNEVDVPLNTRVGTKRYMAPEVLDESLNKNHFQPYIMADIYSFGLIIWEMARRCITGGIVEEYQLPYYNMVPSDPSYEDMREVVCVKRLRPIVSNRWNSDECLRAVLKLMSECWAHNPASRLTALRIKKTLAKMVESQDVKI
Sequence of UniProt Q14012 (whole entry, looked up): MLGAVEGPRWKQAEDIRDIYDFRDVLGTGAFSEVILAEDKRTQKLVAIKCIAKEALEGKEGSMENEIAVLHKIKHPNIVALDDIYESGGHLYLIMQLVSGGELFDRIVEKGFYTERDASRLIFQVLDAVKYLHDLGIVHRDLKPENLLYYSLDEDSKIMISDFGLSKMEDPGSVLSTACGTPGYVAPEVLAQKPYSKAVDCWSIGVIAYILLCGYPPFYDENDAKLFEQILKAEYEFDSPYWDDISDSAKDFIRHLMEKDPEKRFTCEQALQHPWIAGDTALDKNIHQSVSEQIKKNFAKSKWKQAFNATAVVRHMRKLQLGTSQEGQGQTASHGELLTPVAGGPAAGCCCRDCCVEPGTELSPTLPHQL
Sequence of UniProt Q9HBY8 (whole entry, looked up): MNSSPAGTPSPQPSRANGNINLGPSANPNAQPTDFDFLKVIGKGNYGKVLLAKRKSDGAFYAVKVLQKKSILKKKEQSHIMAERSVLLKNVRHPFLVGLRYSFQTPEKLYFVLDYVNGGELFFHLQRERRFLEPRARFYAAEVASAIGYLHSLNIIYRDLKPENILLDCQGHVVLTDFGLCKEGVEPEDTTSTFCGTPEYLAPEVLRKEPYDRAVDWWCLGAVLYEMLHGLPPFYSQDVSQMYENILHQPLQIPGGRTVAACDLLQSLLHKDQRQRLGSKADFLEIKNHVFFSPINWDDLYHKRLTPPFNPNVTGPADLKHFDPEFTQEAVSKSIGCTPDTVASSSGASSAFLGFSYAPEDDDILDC
Sequence of UniProt P14616 (whole entry, looked up): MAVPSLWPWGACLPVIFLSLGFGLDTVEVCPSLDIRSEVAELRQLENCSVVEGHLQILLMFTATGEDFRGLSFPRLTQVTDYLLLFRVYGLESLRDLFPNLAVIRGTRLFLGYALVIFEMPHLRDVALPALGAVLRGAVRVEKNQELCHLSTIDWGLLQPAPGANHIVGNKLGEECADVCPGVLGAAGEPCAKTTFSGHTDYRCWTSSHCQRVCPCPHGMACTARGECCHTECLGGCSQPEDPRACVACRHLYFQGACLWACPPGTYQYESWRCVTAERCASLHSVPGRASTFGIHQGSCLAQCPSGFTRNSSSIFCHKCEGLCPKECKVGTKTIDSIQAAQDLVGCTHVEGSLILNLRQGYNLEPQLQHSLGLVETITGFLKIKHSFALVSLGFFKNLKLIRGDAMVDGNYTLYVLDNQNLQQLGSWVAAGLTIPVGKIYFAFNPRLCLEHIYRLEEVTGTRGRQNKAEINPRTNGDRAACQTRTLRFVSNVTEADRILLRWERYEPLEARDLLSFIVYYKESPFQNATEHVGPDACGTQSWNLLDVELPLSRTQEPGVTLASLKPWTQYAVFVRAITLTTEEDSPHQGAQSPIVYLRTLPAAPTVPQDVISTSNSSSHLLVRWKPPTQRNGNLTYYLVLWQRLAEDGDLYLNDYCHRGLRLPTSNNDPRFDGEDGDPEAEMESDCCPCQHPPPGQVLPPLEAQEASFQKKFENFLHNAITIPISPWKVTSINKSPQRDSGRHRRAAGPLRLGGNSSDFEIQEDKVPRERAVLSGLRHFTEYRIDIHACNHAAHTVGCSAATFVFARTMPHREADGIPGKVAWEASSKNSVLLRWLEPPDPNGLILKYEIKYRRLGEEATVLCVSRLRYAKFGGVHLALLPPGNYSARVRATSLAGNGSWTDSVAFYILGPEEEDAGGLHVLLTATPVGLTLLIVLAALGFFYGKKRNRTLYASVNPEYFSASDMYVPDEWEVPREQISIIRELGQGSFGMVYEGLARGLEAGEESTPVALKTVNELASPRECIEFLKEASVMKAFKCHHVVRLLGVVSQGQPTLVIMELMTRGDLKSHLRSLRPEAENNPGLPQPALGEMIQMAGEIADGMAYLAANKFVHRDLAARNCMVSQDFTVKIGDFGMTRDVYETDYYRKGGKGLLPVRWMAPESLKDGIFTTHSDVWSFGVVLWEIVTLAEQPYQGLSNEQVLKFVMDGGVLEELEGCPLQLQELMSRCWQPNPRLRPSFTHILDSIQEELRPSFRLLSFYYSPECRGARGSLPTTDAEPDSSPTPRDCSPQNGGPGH
Sequence of UniProt P68400 (whole entry, looked up): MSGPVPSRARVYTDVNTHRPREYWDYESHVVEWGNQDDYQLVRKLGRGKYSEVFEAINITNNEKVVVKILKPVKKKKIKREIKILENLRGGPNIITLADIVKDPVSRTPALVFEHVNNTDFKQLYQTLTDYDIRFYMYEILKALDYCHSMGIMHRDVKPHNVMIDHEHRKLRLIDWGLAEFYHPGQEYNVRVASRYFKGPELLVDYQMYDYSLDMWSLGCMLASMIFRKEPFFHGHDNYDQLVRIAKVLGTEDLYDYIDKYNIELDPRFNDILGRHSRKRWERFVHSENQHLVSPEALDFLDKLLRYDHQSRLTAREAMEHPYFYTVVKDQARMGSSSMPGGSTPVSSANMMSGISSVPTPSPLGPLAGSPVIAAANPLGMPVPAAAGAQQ
Sequence of UniProt P20794 (whole entry, looked up): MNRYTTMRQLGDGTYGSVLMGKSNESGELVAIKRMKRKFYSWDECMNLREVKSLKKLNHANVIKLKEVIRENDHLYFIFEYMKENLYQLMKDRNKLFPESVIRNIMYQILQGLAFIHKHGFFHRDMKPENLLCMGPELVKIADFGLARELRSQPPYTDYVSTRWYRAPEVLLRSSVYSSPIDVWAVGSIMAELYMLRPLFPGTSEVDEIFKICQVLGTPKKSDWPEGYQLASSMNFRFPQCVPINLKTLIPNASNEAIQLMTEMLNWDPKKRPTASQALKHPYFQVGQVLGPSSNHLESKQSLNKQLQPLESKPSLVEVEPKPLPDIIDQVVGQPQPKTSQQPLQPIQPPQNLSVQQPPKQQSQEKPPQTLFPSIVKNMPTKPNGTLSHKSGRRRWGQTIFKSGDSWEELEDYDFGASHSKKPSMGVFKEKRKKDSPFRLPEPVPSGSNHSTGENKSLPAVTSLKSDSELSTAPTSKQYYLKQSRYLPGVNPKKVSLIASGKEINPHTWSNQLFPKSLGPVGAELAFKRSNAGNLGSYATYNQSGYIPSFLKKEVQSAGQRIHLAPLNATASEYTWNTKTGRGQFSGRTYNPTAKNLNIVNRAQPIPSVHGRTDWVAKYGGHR
Sequence of UniProt P0C264 (whole entry, looked up): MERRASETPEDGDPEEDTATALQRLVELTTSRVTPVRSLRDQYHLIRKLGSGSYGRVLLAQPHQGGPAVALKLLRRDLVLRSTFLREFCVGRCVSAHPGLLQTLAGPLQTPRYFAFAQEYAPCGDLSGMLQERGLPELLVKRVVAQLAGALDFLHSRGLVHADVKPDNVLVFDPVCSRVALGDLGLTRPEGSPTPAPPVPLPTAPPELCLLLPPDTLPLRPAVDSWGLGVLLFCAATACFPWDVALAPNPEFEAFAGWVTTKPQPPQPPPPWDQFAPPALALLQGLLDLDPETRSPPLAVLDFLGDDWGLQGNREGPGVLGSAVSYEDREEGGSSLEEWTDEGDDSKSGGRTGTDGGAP

Study 1 — cell line: A-375; concentration: 100 µM; time: 36 h
SMILES | viability [%]
C[C@]12CC[C@@H]3c4ccc(OS(=O)(=O)O)cc4CC[C@H]3[C@@H]1CCC2=O | 120
CC(=O)OCC(=O)[C@@]12OC(C)(C)O[C@@H]1C[C@H]1[C@@H]3C[C@H](F)C4=CC(=O)C=C[C@]4(C)[C@@]3(F)[C@@H](O)C[C@@]12C | 81.2
CC(=O)OCC(=O)[C@@]1(O)CC[C@H]2[C@@H]3CCC4=CC(=O)CC[C@]4(C)[C@H]3C(=O)C[C@@]21C | 124
Oc1ccc(OCc2ccccc2)cc1 | 23.3
COc1ccc2[nH]c(SCc3ncc(C)c(OC)c3C)nc2c1 | 74.7
C#C[C@]1(O)CC[C@H]2[C@@H]3CCC4=C(CCC(=O)C4)[C@H]3CC[C@@]21C | 14.8
CCCc1nc2c(C)cc(-c3nc4ccccc4n3C)cc2n1Cc1ccc(-c2ccccc2C(=O)O)cc1 | 68
O=C(c1ccc(OCCN2CCCCC2)cc1)c1c(-c2ccc(O)cc2)sc2cc(O)ccc12 | 0.0768
N#C[C@@H]1CCCN1C(=O)CNC12CC3CC(CC(O)(C3)C1)C2 | 97.3
CC(=O)N[C@@H](CS)C(=O)O | 106
COc1cc([C@H]2Oc3cc([C@H]4Oc5cc(O)cc(O)c5C(=O)[C@@H]4O)ccc3O[C@@H]2CO)ccc1O | 82.8

Study 2 — method: competition with immobilised ligand; concentration: 1 µM
Structure (SMILES): Cc1c(C(=O)O)cc(-c2ccc(C3CCNCC3)cc2)c2ccc(-c3ccc(C(F)(F)F)cc3)cc12
target | observed | remaining binding [%]
ZAP70 (Homo sapiens, UniProt P43403) | binding | 100
KIT (Homo sapiens, UniProt P10721, V559D/V654A) | binding | 100
MAPK15 (Homo sapiens, UniProt Q8TD08) | binding | 100
Tyrosine-protein kinase ABL1, phosphorylated (ABL1, Homo sapiens, UniProt P00519, Y253F) | binding | 87
MYLK3 (Homo sapiens, UniProt Q32MK0) | binding | 94
EPHB6 (Homo sapiens, UniProt O15197) | cell-free assay | 100
PNCK (Homo sapiens, UniProt Q6P2M8) | cell-free assay | 100
CDK16 (Homo sapiens, UniProt Q00536) | binding | 100
INSRR (Homo sapiens, UniProt P14616) | binding | 100
EGFR (Homo sapiens, UniProt P00533, G719C) | cell-free assay | 100
BMPR1A (Homo sapiens, UniProt P36894) | binding | 100
SIK3 (Homo sapiens, UniProt Q9Y2K2) | binding | 100
Aurora kinase C (AURKC, Homo sapiens, UniProt Q9UQB9) | binding | 92
PIK3CA (Homo sapiens, UniProt P42336, E545K) | cell-free assay | 89
CSNK2A1 (Homo sapiens, UniProt P68400) | cell-free assay | 100
SBK3 (Homo sapiens, UniProt P0C264) | binding | 80
MAK (Homo sapiens, UniProt P20794) | binding | 91

Study 3 — SMILES: CC(C)n1cnc2c(Nc3cccc(Cl)c3)nc(NCCO)nc21; observed: enzyme activity; action: inhibitor; concentration: 0.5 µM; reference: control
target | remaining activity [%]
TEC (Homo sapiens, UniProt P42680) | 113
SRPK1 (Homo sapiens, UniProt Q96SB4) | 61.7
EPHA2 (Homo sapiens, UniProt P29317) | 93.3
CAMK1 (Homo sapiens, UniProt Q14012) | 71.2
CSNK1D (Homo sapiens, UniProt P48730) | 48.5
RPS6KA3 (Homo sapiens, UniProt P51812) | 60.1
IGF1R (Homo sapiens, UniProt P08069) | 90
SGK2 (Homo sapiens, UniProt Q9HBY8) | 97.4
CLK1 (Homo sapiens, UniProt P49759) | 77.9
FLT1 (Homo sapiens, UniProt P17948) | 93.4
MAP3K20 (Homo sapiens, UniProt Q9NYL2) | 96.6
CAMKK1 (Homo sapiens, UniProt Q8N5S9) | 88.2
CSNK1E (Homo sapiens, UniProt P49674) | 65.4
CLK2 (Homo sapiens, UniProt P49760) | 25
PRKCZ (Homo sapiens, UniProt Q05513) | 97.8
JAK1 (Homo sapiens, UniProt P23458) | 103
PRKCQ (Homo sapiens, UniProt Q04759) | 91.4
TYRO3 (Homo sapiens, UniProt Q06418) | 92.7
Cyclin-dependent kinase 2, with cyclin E (CDK2, Homo sapiens, UniProt P24941) | 37.1

Other studies, line by line
SMILES | cell line | method | concentration | time | reference | measurement | value
CC1=C(/C=C/C(C)=C/C=C/C(C)=C/C(=O)O)C(C)(C)CCC1 | HuT78 | trypan blue | concentration not given | day 0 | untreated control | relative cell number | 1.11 and 0.937 and 1.12
